Published values pooled from the literature.
Protocols differ between the studies behind these lines. ± marks the error that the study gave.
UGT1A9: UDP-glucuronosyltransferase 1A9 (UGT1A9, Homo sapiens, UniProt O60656)
Sequence of UniProt O60656 (whole entry, looked up): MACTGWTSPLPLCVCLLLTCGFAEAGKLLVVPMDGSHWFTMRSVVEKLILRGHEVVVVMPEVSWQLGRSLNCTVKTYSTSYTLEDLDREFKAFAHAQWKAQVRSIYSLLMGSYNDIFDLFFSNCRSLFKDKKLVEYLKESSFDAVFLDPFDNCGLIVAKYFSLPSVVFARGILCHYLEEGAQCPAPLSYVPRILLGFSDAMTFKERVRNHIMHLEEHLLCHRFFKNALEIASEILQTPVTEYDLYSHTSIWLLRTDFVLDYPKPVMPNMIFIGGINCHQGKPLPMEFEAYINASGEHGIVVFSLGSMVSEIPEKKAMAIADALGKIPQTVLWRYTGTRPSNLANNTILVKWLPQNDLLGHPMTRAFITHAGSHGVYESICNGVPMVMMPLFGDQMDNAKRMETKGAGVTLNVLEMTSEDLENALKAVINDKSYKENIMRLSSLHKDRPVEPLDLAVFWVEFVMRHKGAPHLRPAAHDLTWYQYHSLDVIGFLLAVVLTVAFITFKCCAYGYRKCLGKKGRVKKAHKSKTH
SULT2A1: Sulfotransferase 2A1 (SULT2A1, Homo sapiens, UniProt Q06520)
Sequence of UniProt Q06520 (whole entry, looked up): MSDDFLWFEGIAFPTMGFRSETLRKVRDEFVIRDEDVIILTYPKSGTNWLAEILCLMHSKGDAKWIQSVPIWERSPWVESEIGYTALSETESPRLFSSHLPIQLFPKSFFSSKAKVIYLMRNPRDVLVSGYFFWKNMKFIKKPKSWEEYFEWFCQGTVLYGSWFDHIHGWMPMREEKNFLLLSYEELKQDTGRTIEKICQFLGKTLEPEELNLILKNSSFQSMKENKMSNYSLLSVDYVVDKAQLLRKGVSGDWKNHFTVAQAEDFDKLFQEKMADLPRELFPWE
Sequence of UniProt Q86YT5 (whole entry, looked up): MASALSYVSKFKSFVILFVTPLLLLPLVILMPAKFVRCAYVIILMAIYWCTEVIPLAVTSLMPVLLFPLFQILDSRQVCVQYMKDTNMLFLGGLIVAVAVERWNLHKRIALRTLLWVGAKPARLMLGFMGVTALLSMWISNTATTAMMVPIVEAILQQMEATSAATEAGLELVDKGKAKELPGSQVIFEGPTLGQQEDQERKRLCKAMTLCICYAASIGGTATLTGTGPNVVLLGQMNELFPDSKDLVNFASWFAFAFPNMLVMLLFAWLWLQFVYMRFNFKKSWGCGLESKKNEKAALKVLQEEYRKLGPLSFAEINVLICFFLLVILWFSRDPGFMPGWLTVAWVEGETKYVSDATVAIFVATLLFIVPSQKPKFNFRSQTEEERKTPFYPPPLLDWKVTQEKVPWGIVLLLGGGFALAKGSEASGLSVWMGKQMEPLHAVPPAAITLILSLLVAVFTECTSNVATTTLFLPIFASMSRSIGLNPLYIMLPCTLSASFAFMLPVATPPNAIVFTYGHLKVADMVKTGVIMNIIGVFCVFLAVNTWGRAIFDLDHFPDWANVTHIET
Sequence of UniProt P52792 (whole entry, looked up): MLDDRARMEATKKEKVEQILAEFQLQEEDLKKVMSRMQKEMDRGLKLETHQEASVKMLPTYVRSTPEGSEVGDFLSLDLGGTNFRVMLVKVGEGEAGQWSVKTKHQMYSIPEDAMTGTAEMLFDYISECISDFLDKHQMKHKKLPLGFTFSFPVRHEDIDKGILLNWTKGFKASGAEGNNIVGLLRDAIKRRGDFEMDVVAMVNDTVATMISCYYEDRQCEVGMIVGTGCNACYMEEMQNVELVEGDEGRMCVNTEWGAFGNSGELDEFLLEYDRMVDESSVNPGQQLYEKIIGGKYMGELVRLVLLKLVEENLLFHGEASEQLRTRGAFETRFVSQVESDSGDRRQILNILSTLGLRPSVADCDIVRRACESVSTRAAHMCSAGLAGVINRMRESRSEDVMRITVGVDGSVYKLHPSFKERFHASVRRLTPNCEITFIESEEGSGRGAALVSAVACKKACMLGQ
Sequence of UniProt P04191 (whole entry, looked up): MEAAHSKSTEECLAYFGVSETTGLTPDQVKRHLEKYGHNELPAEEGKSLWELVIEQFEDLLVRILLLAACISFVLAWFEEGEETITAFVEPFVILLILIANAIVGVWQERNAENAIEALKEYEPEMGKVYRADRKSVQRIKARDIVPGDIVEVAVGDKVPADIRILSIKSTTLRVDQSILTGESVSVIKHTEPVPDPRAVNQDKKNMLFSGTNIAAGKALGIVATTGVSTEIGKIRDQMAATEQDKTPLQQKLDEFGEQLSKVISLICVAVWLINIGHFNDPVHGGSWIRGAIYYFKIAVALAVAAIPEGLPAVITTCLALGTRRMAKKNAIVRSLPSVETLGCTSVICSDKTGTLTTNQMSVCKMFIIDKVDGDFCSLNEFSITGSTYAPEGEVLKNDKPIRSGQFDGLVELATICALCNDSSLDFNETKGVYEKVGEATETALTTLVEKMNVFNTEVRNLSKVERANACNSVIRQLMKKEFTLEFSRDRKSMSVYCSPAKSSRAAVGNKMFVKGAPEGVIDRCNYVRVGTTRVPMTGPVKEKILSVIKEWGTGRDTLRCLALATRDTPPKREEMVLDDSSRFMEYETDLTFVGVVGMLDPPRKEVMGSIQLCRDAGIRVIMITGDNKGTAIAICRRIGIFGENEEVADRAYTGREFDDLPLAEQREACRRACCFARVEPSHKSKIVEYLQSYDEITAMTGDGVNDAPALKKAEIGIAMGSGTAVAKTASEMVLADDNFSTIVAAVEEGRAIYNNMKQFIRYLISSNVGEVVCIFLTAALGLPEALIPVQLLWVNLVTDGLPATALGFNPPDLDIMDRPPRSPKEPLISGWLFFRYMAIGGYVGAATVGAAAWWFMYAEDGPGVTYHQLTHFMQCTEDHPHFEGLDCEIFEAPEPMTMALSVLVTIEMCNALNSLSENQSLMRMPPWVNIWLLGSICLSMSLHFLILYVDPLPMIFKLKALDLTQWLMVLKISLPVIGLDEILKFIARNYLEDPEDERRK

| Compound | target | assay | system | conditions | scale | Vmax |
| --- | --- | --- | --- | --- | --- | --- |
| O=c1c(O)c(-c2ccccc2)oc2ccc(O)cc12 | UGT1A9 | substrate | – | pH 7.4, 37 °C | – | 13000 pmol/mg/min |
| O=C(NCc1ccc(F)cc1)C1CCN(S(=O)(=O)c2cc(Cl)cc(Cl)c2)CC1 | Na(+)/citrate cotransporter (Homo sapiens, UniProt Q86YT5) | inhibitor | HepG2 | 0.3 µM, 30 min, preincubated then washed, together with: citrate | – | 22 ± 3 nmol/mg protein/30 min |
| CS(=O)(=O)c1ccc([C@@H](CC2CCCC2)C(=O)Nc2nccs2)cc1 | Hexokinase-4 (Mus musculus, UniProt P52792) | activator | – | 3 µM, pH 7.4, 37 °C, with or without BAD SAHB, together with: glucose 0 to 50 mM, ATP 5 mM | relative to: vehicle | 138 ± 6.15% |
| Oc1ccc(-c2ccc(Cl)c(Cl)c2)c(Cl)c1 | SULT2A1 | substrate, HPLC of PAP formation | – | substrate inhibition fit, together with: PAPS 200 µM | – | 21000 ± 7400 pmol/mg/min |
| CCCCc1ccc(O)cc1 | UGT1A9 | substrate | – | pH 7.4, 37 °C | – | 647 pmol/mg/min |
| Oc1c(Cl)cc(-c2ccccc2Cl)cc1Cl | SULT2A1 | substrate, HPLC of PAP formation | – | substrate inhibition fit, together with: PAPS 200 µM | – | 57100 ± 11400 pmol/mg/min |
| CCOC(=O)CC1C(C(=O)OCC)=C(N)Oc2ccc(-c3cc(OC)cc(OC)c3)cc21 (stereo not drawn) | ATP2A1 (Oryctolagus cuniculus, UniProt P04191) | Ca2+-dependent ATPase activity | rabbit SR vesicles | 10 µM, unit not given, together with: varied Ca2+ | relative to: control | 0.8 ± 0.04 |
| Cc1cc(O)cc2oc(-c3ccccc3)cc(=O)c12 | UGT1A9 | substrate | – | pH 7.4, 37 °C | – | 5370 pmol/mg/min |
| Oc1ccc(-c2ccc(Cl)cc2Cl)cc1Cl | SULT2A1 | substrate, HPLC of PAP formation | – | substrate inhibition fit, together with: PAPS 200 µM | – | 8500 ± 500 pmol/mg/min |

A few entries again:
| Compound | target | assay | system | conditions | scale | Vmax |
| --- | --- | --- | --- | --- | --- | --- |
| CS(=O)(=O)c1ccc([C@@H](CC2CCCC2)C(=O)Nc2nccs2)cc1 | Hexokinase-4 (Mus musculus, UniProt P52792) | activator | – | 3 µM, pH 7.4, 37 °C, with or without BAD SAHB, together with: glucose 0 to 50 mM, ATP 5 mM | relative to: vehicle | 138 ± 6.15% |
